Assay results of several laboratories.
Parts stem from different laboratories: compare values within a part only.

Block 1
Target: Sal-like protein 4, full length isoform A (SALL4, Homo sapiens, UniProt Q9UJQ4, residues 1-1053)
Chain of UniProt Q9UJQ4 (whole entry, looked up): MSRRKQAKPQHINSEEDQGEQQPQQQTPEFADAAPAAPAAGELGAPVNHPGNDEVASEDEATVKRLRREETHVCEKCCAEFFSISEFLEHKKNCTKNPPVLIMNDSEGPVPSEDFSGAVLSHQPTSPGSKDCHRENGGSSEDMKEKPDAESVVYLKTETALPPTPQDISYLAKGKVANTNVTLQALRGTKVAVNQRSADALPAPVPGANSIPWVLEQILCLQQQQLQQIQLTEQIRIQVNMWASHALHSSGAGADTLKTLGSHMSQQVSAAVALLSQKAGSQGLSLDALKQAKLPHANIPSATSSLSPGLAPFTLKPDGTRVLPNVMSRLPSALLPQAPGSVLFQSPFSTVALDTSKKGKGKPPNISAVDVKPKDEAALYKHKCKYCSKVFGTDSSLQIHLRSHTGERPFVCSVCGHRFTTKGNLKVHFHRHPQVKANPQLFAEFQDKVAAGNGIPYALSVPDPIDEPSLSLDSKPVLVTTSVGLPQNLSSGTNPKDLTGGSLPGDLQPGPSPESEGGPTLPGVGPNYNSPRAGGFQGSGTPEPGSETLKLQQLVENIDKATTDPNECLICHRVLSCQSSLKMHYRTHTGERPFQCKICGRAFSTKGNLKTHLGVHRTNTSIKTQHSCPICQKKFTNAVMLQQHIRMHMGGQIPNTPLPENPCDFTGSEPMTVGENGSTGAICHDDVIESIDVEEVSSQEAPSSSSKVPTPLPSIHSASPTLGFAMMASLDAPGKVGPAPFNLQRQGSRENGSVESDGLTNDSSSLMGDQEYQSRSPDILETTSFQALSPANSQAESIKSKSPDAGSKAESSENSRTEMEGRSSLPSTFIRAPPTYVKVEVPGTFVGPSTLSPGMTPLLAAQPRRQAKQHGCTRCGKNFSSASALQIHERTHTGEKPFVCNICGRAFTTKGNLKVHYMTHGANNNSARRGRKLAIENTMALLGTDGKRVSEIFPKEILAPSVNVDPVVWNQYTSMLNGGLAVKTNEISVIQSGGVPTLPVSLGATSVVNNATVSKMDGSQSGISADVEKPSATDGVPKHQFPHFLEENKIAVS
Method: universal PBM
Molecule type: double-stranded DNA, one strand shown
Matrix: in vitro
Concentration: 600 nM
Setting: 8-mer, flanks averaged, mean of replicates
Reading: higher = stronger binding
Quantity: E-score
Strand = CAGATACG; result = -0.0642
Strand = ACGCAAGA; result = -0.0419
Strand = ATGCTTCA; result = 0.143
Strand = GTCCTTGA; result = 0.00771
Strand = AATAAGAA; result = 0.338

Block 2
Target: Histone acetyltransferase KAT6A, both winged helices, GST fusion (KAT6A, Homo sapiens, UniProt Q92794, residues 1-181)
Method: protein binding microarray
Molecule type: double-stranded DNA, one strand shown
Matrix: in vitro
Concentration: not given
Setting: 8-mer, flanks averaged, mean of 2 arrays, mostly near background
Reference: not given
Reading: higher = stronger binding
Quantity: E-score
Target sequence (chain): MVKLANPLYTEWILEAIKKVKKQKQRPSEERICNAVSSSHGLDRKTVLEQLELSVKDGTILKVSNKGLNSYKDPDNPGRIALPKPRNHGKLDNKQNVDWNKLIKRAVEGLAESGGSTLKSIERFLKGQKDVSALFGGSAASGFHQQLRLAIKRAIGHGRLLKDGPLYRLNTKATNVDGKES
Strand = CCCATACA; result = -0.2
Strand = CAAGTTCG; result = -0.116
Strand = CATTATAA; result = -0.0201
Strand = GGTTGACA; result = -0.072
Strand = AGCTGTAT; result = -0.189

Block 3
Target: Interferon regulatory factor 5, full length, phosphomimetic (IRF5, Homo sapiens, UniProt Q13568-2, residues 1-514, K96S/S451D/S453D/S456D/S462D)
Method: protein-binding microarray
Molecule type: double-stranded DNA, one strand shown
Matrix: in vitro
Concentration: 250 nM
Setting: 60-bp whole probe
With: salmon DNA 0.4 mg/ml
Reference: random background probes
Reading: higher = stronger binding
Quantity: log fluorescence
Shared flanks, not repeated: GCCTAGCAC … GTCTTGATTCGCTTGACGCTGCTG
Strand = TTGGGTCTCCTACTGCTTTAGTGCTAG; result = -0.493 z-score
Strand = GACGGTTTGGGTTTCGGGACGTGCTAG; result = 2.56 z-score
Strand = TTAGATATCGGGACTGGAGTAGTGCTA; result = 1.12 z-score
Strand = GAGCCTCTGTTTTGAGCACAGTGCTAG; result = -0.0749 z-score
Strand = GACGGTATCGGGACTGGGGTCGTGCTA; result = 1.16 z-score

Other studies, line by line
Substance = PhoQ, residues 284 288 289 292 302 303 AAQSYM; target = PhoP, residues 12 14 15 18 19 NIMAP (Escherichia coli, UniProt P23836); test = Sort-seq, item: YFP reporter; test system = E. coli; setting = PhoQ-PhoP variant library, with: 10 µM Mg2+; scale = reference: high Mg2+ state, higher = stronger signaling; quantity = fold induction; result = 0.623
